Measured values of several laboratories.
Each numbered part is a random draw from the data of one study; scales do not carry over between parts.
UniProt Q8IWQ3, sequence (whole entry, looked up): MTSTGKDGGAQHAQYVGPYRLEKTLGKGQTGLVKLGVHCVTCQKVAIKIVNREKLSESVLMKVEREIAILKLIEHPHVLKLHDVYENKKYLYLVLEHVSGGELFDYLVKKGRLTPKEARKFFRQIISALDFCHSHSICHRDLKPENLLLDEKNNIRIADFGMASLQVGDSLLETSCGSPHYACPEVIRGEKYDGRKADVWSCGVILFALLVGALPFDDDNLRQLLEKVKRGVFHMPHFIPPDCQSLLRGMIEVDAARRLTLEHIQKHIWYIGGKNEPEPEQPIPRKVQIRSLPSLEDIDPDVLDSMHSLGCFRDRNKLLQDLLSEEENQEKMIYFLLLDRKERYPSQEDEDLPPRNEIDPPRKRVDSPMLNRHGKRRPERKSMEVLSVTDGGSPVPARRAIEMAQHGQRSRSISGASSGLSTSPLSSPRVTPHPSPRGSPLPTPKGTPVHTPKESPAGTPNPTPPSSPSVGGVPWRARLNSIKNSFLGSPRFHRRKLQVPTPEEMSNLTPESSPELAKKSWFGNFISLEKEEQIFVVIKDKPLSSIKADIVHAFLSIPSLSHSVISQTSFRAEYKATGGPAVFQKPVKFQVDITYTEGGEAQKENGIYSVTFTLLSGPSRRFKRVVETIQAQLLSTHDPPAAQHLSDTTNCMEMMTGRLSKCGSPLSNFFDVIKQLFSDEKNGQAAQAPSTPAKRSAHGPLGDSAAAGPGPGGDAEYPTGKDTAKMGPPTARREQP
UniProt P51813, sequence (whole entry, looked up): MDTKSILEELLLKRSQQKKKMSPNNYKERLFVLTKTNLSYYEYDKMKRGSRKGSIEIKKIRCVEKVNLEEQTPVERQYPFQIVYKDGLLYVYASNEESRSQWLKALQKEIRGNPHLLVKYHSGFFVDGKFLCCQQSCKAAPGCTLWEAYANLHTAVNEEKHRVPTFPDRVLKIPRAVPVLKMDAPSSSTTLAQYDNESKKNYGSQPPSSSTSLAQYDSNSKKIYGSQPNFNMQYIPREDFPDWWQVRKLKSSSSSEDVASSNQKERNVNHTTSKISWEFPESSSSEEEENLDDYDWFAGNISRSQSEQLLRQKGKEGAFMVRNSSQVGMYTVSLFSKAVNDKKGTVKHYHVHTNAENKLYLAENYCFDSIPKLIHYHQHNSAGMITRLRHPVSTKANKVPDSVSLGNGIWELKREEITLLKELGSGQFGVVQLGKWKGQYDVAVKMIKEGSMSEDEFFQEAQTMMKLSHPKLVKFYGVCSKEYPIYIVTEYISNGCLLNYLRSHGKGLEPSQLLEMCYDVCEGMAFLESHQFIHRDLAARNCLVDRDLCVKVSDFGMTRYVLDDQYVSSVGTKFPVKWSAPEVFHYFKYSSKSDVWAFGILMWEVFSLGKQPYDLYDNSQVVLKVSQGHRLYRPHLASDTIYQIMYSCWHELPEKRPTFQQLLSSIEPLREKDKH

Study 1 — effect on: enzyme activity; mode: inhibitor; concentration: 0.5 µM; relative to: control
Target: Serine/threonine-protein kinase TAO3 (TAOK3, Homo sapiens, UniProt Q9H2K8)
UniProt Q9H2K8, sequence (whole entry, looked up): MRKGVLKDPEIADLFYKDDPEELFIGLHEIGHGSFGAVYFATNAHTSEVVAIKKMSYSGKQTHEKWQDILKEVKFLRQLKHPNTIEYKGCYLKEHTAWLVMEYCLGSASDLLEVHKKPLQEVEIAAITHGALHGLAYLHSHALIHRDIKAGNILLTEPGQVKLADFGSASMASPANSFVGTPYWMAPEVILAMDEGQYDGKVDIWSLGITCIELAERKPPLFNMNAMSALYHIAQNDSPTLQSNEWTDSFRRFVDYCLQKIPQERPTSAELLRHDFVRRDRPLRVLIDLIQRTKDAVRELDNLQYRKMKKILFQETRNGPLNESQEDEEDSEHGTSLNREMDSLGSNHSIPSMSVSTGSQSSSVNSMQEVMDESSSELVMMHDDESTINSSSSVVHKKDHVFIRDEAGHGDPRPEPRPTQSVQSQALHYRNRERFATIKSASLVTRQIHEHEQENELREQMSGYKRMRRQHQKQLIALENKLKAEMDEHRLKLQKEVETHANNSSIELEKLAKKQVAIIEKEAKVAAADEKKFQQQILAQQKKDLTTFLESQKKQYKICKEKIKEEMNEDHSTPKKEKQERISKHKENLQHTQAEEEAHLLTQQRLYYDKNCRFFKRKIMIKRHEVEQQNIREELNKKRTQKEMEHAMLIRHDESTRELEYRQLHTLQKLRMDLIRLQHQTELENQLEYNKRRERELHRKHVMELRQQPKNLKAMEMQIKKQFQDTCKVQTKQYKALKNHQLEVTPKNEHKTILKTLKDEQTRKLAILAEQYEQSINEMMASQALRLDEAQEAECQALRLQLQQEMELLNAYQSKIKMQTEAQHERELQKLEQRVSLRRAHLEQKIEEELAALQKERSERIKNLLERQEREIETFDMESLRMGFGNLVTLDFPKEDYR
| SMILES | remaining activity [%] |
| --- | --- |
| Cc1ccc(Nc2nccc(N(C)c3ccc4c(C)n(C)nc4c3)n2)cc1S(N)(=O)=O | 55.5 |
| NCCNc1ncc(C(N)=O)c(Nc2cccc(C(F)(F)F)c2)n1 | 83.6 |
| O=C1NC(=O)C(c2cn(CCCn3ccnc3)c3ccccc23)=C1Nc1ccccc1 | 76.5 |
| Cc1nc(-c2ccccc2)c(-c2ccncc2)o1 | 99 |
| OCC(O)CCON=C1C(c2c(O)[nH]c3ccccc23)=Nc2ccccc21 (stereo not drawn) | 55.4 |
| COc1cc2ncnc(Nc3ccc(F)c(Cl)c3)c2cc1OCCCN1CCOCC1 | 99.5 |
| CCOC(=O)c1c(C)[nH]c(/C=C2\C(=O)Nc3ccccc32)c1C | 87.6 |
| CC(C)[C@H](CO)Nc1nc(Nc2cc(N)cc(Cl)c2)c2ncn(C(C)C)c2n1 | 86.9 |
| O=C(Nc1cccc(Nc2cc(Nc3cccc(C(F)(F)F)c3)ncn2)c1)C1CC1 | 98.7 |
| COc1cc2nccc(Oc3ccc(NC(=S)NC(=O)c4ccccc4C)cc3)c2cc1OC | 87.9 |
| COc1ccc(CNC(=O)Nc2ncc([N+](=O)[O-])s2)cc1 | 98.5 |
| O=c1c2ccccc2[nH]c(=S)n1CCN1CCC(=C(c2ccc(F)cc2)c2ccc(F)cc2)CC1 | 92.4 |
| Nc1[nH]nc2nc3ccccc3nc12 | 97.1 |
| O=C(CCCc1ccc(-c2ccccc2F)cc1)Nc1ccc(O)cc1 | 91.4 |
| Nc1ccc2ncnc(NCCc3ccc(Oc4ccccc4)cc3)c2c1 | 102 |

Study 2 — concentration: 1 µM
SMILES: Cc1noc([C@H]2C[C@@H](c3ccc(C(F)(F)F)cc3)CN(C(=O)N3CCS(=O)(=O)C3)C2)n1
| target | test | remaining binding |
| --- | --- | --- |
| RIPK1 (Homo sapiens, UniProt Q13546) | cell-free assay, competition with immobilised ligand | 100% |
| CSNK1A1 (Homo sapiens, UniProt P48729) | cell-free assay, competition with immobilised ligand | 70% |
| CDC42BPG (Homo sapiens, UniProt Q6DT37) | competition binding | 100% |
| WNK1 (Homo sapiens, UniProt Q9H4A3) | cell-free assay, competition with immobilised ligand | 86% |
| KIT (Homo sapiens, UniProt P10721, V559D) | cell-free assay, competition with immobilised ligand | 100% |
| FGFR3 (Homo sapiens, UniProt P22607) | cell-free assay, competition with immobilised ligand | 100% |
| BMX (Homo sapiens, UniProt P51813) | cell-free assay, competition with immobilised ligand | 100% |
| MAP4K5 (Homo sapiens, UniProt Q9Y4K4) | cell-free assay, competition with immobilised ligand | 100% |
| BRSK2 (Homo sapiens, UniProt Q8IWQ3) | cell-free assay, competition with immobilised ligand | 100% |

Study 3 — effect on: enzyme activity; mode: inhibitor; concentration: 77 µM; relative to: untreated
Target: DNA polymerase theta, ATPase domain (POLQ, Homo sapiens, UniProt O75417)
UniProt O75417, sequence (whole entry, unmodified, looked up): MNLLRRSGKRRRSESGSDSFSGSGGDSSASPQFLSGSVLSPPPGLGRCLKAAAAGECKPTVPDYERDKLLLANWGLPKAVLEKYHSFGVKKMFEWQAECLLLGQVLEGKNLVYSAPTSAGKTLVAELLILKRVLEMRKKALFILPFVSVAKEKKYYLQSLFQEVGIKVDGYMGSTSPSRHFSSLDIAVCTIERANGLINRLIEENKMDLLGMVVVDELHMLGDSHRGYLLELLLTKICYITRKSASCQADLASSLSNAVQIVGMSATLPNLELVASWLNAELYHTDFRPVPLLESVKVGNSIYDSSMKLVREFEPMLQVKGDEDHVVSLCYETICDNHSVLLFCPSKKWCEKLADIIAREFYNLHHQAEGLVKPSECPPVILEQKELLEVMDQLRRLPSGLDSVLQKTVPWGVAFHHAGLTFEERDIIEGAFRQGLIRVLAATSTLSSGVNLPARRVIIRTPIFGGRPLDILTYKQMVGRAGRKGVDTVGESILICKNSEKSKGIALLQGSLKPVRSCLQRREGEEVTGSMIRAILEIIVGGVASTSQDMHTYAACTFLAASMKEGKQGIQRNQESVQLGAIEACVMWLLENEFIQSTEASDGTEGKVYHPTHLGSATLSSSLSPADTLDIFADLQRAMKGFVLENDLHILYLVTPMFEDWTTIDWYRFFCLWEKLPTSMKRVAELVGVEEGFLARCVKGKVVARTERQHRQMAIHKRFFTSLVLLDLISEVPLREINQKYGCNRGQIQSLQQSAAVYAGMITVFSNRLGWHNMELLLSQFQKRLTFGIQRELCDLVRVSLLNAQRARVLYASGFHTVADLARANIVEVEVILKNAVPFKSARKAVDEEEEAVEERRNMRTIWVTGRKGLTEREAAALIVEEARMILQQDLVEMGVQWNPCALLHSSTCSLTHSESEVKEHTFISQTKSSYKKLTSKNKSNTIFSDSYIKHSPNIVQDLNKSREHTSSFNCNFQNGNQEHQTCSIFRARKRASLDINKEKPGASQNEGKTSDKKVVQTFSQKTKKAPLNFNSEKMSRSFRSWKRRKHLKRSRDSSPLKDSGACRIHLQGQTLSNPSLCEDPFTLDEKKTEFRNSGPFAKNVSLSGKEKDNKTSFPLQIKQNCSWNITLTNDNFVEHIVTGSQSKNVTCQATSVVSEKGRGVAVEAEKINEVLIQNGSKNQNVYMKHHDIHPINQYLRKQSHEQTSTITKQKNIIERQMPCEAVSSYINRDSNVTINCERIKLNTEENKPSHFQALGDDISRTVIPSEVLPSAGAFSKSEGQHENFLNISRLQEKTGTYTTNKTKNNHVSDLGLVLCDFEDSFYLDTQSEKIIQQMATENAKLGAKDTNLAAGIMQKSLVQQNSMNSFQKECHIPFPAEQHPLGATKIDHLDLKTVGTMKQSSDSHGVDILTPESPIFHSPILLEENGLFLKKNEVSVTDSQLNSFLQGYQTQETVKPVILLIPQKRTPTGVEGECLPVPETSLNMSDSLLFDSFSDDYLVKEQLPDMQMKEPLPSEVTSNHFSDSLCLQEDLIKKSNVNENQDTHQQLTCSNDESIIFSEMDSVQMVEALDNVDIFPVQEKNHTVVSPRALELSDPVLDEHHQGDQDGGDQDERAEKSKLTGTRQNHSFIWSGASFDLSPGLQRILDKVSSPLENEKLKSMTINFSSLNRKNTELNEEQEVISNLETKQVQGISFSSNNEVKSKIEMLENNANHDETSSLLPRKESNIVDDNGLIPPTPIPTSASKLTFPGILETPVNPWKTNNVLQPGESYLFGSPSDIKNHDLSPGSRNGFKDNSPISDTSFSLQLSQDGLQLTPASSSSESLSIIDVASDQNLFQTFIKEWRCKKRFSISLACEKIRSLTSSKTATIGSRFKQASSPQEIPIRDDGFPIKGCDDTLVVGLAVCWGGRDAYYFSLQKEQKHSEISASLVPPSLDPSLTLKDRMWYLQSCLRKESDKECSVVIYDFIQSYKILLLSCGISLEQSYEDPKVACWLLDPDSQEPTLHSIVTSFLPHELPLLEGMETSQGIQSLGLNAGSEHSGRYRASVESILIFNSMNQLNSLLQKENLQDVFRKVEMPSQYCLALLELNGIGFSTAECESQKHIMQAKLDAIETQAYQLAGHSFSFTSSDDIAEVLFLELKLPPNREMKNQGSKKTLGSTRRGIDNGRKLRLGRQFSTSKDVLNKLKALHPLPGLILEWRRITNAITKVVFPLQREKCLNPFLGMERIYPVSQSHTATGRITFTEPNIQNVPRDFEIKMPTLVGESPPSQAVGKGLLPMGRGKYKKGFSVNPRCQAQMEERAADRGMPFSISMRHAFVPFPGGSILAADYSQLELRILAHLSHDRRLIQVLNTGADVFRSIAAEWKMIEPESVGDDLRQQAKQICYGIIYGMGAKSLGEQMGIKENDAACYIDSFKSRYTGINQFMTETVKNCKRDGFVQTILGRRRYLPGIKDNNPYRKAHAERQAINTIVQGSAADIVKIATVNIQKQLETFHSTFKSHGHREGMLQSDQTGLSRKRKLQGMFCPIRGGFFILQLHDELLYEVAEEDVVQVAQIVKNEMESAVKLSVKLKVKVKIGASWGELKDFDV
| Compound | remaining activity |
| --- | --- |
| CNCc1ccc(C)c(NC(=O)c2ccc(Nc3nc(-c4ccccc4)c4ccccc4n3)cc2)c1 | 97.1% |
| C[C@H]1[C@H](OC(=O)CCC(=O)O)O[C@@H]2O[C@@]3(C)CC[C@H]4[C@H](C)CC[C@@H]1[C@@]24OO3 | 101% |
| C=C(CC)C(=O)c1ccc(OCC(=O)O)c(Cl)c1Cl | 97.7% |
| O=C1C(Cl)=C(N2C(=O)CCC2=O)C(=O)c2ccccc21 | 99.5% |

Study 4 — species: human; sample: microsomes or S9; concentration: 2 µM; time: 0.5 h
| SMILES | remaining compound [%] |
| --- | --- |
| CCOC(=O)Cc1c(-c2cc3ccccc3n2C)[nH]c2ccccc12 | 0.268 |
| Cc1c(O)ccc(C(=O)Cc2ccccc2F)c1O | 67.6 |
| CC(CCc1ccco1)NC(=O)c1cc(S(=O)(=O)N(C)C)c(Cl)cc1Cl (stereo not drawn) | 3.06 |
| CS(=O)(=O)N1CCN(Cc2ccc(Oc3cccc(C(F)(F)F)c3)c3c(N)n[nH]c23)CC1 | 80.8 |
| Cc1cc(C)nc(N2N=C(c3ccccc3)CC2=O)n1 | 79.2 |
| Cc1ccccc1S(=O)(=O)N(CCn1nnc(C(=O)O)c1C(=O)O)C1CCCCC1 | > 99.9 |
| CC(C)Nc1ccnc(N2CCN(Cc3cccs3)C(CCO)C2)n1 (stereo not drawn) | 5.05 |
| Clc1ccc(-c2nc3cnc4ccccc4c3s2)cc1 | 35.4 |

Repeated from above (study 3):
| Compound | remaining activity |
| --- | --- |
| C=C(CC)C(=O)c1ccc(OCC(=O)O)c(Cl)c1Cl | 97.7% |
| C[C@H]1[C@H](OC(=O)CCC(=O)O)O[C@@H]2O[C@@]3(C)CC[C@H]4[C@H](C)CC[C@@H]1[C@@]24OO3 | 101% |
| CNCc1ccc(C)c(NC(=O)c2ccc(Nc3nc(-c4ccccc4)c4ccccc4n3)cc2)c1 | 97.1% |
| O=C1C(Cl)=C(N2C(=O)CCC2=O)C(=O)c2ccccc21 | 99.5% |
